Assay results of several laboratories.
A part holds a random share of what one study measured. Positions count from the first letter of the parent shown.

Set 1
Target: TEF, bZIP domain (human)
Technique: DHFR protein complementation
Sample: yeast
Notes: single substitutions, most at no-binding floor
Relative to: wild-type JUN-FOS pair
Direction: higher = stronger binding
Parent: JUN, bZIP domain (human); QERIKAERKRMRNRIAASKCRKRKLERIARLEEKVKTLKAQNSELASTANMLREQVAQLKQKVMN; partner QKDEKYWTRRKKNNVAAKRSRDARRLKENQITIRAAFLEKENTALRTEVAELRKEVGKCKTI
Change	binding fitness
A49D	-1.46 natural log
L45M	-1.26 natural log
T48I	-1.12 natural log
A29P	-1.46 natural log
M51D	-1.35 natural log
T37M	-1.49 natural log
K39G	-1.4 natural log
Q55P	-1.5 natural log
K39Y	-1.2 natural log
A49V	-1.5 natural log
V56S	-1.5 natural log
R30C	-1.47 natural log
E44A	-1.37 natural log
Q55Y	-1.27 natural log
R53P	-1.57 natural log
K34W	-1.5 natural log
T48P	-1.51 natural log
K36T	-1.16 natural log
A46M	-1.25 natural log
M51E	-1.51 natural log

Set 2
Target: Interferon regulatory factor 5, full length, phosphomimetic (IRF5, Homo sapiens, UniProt Q13568-2, residues 1-514, K96S/S451D/S453D/S456D/S462D)
Technique: protein-binding microarray
Form: double-stranded DNA, one strand shown
Sample: in vitro
Tested at: 250 nM
Notes: 60-bp whole probe
Added: salmon DNA 0.4 mg/ml
Relative to: random background probes
Direction: higher = stronger binding
Constant ends, left off below: GCCTAGCAC … GTCTTGATTCGCTTGACGCTGCTG
Oligonucleotide	log fluorescence
TTAGGTTTCGACATTCGGTTAGTGCTA	6.91 z-score
TTAGATATCGGCTTTCGATTAGTGCTA	8.1 z-score
TTAGGTCTCCTTGTCCTTTAGTGCTAG	-0.303 z-score
TCACTTTCCTTACTTCCCACTGTGCTA	2.11 z-score
GACGGTATCGACCCTGGGGACGTGCTA	1.02 z-score
TCATTTCCATTTTCTAAAACTGTGCTA	2.14 z-score
GACGGATTCCTTTTCCTGACGTGCTAG	0.266 z-score
TTAAGTATCGACTTTCGGTTAGTGCTA	10.2 z-score
GACGATTTAAGACTGGAGACGTGCTAG	-0.0904 z-score
GACGGTTTCGGGTTGCGGGACGTGCTA	7.41 z-score
TGGCCTCTAGGTTTTCTGGAGTGCTAG	-0.526 z-score
TTAGGTCTCCTTTTCATTTAGTGCTAG	0.716 z-score
TTAGGTCTCCTTATCCGTTAGTGCTAG	-0.196 z-score
GTAAATCTTTTTCCCTATTAGTGCTAG	1.28 z-score
TTAGAACTGGGGTTTCGATTCGTGCTA	4.82 z-score
AGTATGTTCACTATTTAAGGGTGCTAG	0.356 z-score
GACGGTATCGGTGTCGGGACGTGCTAG	3.72 z-score
TTAGATCTCCTTATCCTTTAGTGCTAG	0.461 z-score
AGTTAATCCCTCTCAGGCATGTGCTAG	0.0764 z-score
TTAGGTTTCAACACTGGGTTAGTGCTA	0.872 z-score
TTAGGTATCCGTTTCGGTTAGTGCTAG	8.53 z-score
TCATTTCTTTTTTTCTTACTGTGCTAG	1.87 z-score
GACGGTTTCGGGACGGGGGACGTGCTA	6.27 z-score
GACGGTCTCCTACTTCTGACGTGCTAG	-0.337 z-score
GACTAACTGGGGACTGGAGACGTGCTA	-0.552 z-score

Set 3
Target: Hepatocyte nuclear factor 3-alpha (Foxa1, Mus musculus, UniProt P35582, residues 1-468, full length assumed)
Technique: EMSA with sequencing
Form: double-stranded DNA, one strand shown
Sample: in vitro
Tested at: 10 and 20 nM
Notes: whole designed probe, mean of two concentrations, ends assumed
Relative to: negative control set to 0
Direction: higher = stronger binding
Residues (chain): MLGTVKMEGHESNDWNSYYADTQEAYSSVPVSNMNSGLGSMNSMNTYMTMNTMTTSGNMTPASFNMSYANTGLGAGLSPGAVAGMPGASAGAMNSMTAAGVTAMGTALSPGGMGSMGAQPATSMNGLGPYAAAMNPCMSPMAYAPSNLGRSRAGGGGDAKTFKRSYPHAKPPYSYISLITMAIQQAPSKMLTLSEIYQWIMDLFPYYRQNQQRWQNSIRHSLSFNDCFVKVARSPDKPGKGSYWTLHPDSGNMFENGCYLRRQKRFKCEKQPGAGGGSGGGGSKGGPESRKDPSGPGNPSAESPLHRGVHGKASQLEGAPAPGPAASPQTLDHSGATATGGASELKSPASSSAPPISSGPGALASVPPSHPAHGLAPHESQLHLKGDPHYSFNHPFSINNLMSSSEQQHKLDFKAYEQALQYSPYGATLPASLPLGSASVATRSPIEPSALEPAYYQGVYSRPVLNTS
Oligonucleotide	normalised bound fraction
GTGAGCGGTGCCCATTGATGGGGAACCGGCAGTGGGCGTGGCTAGGTGGGGCGGGACGGAGCCGCGGCGGAGGATGGGGCGGGGTTTCATGGGGTAAGCGGGGCCGAAATAGAGCCTGTTATTTACTCTGGTTCACAGGCAGCATGTCTTTGGTTTTCTGACTACTTCTTGTCCTGTGAAGCAGCGTTGCTGCCTGCCTATTTTAAGTTAATGTTTCAATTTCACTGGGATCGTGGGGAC	0.219 ratio
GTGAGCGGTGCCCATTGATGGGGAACTATTATGAGCTGGACCTTGCTTAGCCCCAGCTGGGTTCTTGCTTCCCATCCTCCTCCCTGCCTGCTGCTTCCCTGAGTCATGCCCACTGCAATGTAATTTACAGGGCAGCTCCTAGGAGCTTGCAATGACAGCAATAGTGGGAGGAACAAGAGGGAAGGGAGCAACTGTTTTGTTTTGTTCGAAATGGTGTCTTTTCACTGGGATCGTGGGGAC	-0.052 ratio
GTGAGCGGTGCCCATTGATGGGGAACGGCTCCAAACGGCTGAATCAGCATTTTCAGAAACAAAGTGTTCTAGGCCTGGCCTTTTAAACAGCAGCAACGAGCAAGTTGTGCAATAACGCAAAATTACTCACGAGCTCTCCTTGTTTTGGTCTTTCCCCCCTCCCCCCCATCTCTTGAATGAAACTGGGCACCAAGTTTGCAAGAAAATATTCTTTCAAACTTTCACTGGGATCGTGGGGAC	-0.0551 ratio
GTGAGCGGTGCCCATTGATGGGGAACAATGTGTGTACTTACTAGACTACAGTATAGTGTAATTTTAACTTAAGTATGTACTGGAAAACCAAAACATTCATGCGACTTGTTTTATTGCAGAAATTACTTTATTAGGTGATCTGGAACAGAACCCACAGTATCTTCAAGGTATGTGTATACTTCTCTAAATCAAATTTAATCTGATCCAAGCCTTCATCTCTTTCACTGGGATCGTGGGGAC	0.0799 ratio
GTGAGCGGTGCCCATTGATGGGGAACTAGCAGGTCACTGCCAGTCACGAGGGCAGAGAGACCCAAAGGATCAGAGAACAGCTCTGAGCAGGTCAAGGGCAGTGCCAGAAGGAAAGCCTTAGATTACAGAGGGAAAGATCCTGCACCTTGAAGTGAGGCATTAAAGAGTAGAGGGGCTTTGCACCTGCATCCTAAGCCTCTTGGTTCACCACTAAGCCGCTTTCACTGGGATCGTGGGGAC	-0.0819 ratio
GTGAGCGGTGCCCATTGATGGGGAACCCCGGAGGACCCGACCGGAGAGGGCGAGAGGAGGAGGAGCCCGGGTGGCGGGAAGCGAGCCCAGGTTCCCGCGGCCTTGCGAGGGCACGCAGGGCAAACAGTGCTTTATCTTTCGCAGCGGCGATGAGCTGGTGACTTTTGGGGGTCATCCTGAGGGACATAGACGAAACTGGTTGGGAGGTAGTTAATTGCTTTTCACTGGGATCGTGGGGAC	0.0224 ratio
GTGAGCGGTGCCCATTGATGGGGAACGCGTAGCGGCCGTAGCACCAGTTCCCGCCTCCCCCGCGGCCCGGCGCTGCGGGCGGGACCTGCGGCGACCTGTGGGCGGAAGTCTGTGGCTTTATTTACACAGAGGGCAGCCCGTGGAGGCTAGCCTTGTAAGGACGAATCGCTGGCGGGCCTGTGGGGGAGGCCAGGAAAGGCGGCCTTCGCCTGATAGGAATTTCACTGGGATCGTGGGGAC	0.462 ratio
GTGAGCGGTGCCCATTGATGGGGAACCATTAGAGTCAAAGTTGTTAAGGGGAGCTAGTCATAGCTACCACGTGGCCAGGCATGTATGAATCATCAGGAACCAGACACCAGGCACACATCTATTTACTTTAAATAATGCTGACAACCTAGTTCATAGTGACACACTACTTGAGATATATAGAATAACATTATTACCCAGTAAGTATGTGAACATTCCGATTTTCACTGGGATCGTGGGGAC	0.366 ratio

Set 4
Target: CCND3, cyclin fold, Cln2 fusion (human)
Technique: yeast growth competition, sequencing
Sample: yeast
Notes: weak parent motif
Relative to: not given
Direction: higher = stronger binding
Parent: ORC1 docking peptide (human); PRARKRLELGNLG
Change	normalised enrichment score
L12G	0.0733
P1Y	0.125
L12R	0.06
P1R	0.158
N11Y	0.256
L7V	0.0162
L9Q	0.155
G10Q	0.07
L9W	0.0754
L7H	0.0882
L7I	0.13
R4L	0.141
P1D	0.159
G10S	0.0273
N11Q	0.0236
R2G	0.0879
L9A	0.144

For quick reference, copied from above (set 2):
Oligonucleotide	log fluorescence
TCACTTTCCTTACTTCCCACTGTGCTA	2.11 z-score
GACGGTATCGACCCTGGGGACGTGCTA	1.02 z-score
TCATTTCCATTTTCTAAAACTGTGCTA	2.14 z-score
GACGGATTCCTTTTCCTGACGTGCTAG	0.266 z-score
TTAAGTATCGACTTTCGGTTAGTGCTA	10.2 z-score
GACGATTTAAGACTGGAGACGTGCTAG	-0.0904 z-score
GACGGTTTCGGGTTGCGGGACGTGCTA	7.41 z-score
TGGCCTCTAGGTTTTCTGGAGTGCTAG	-0.526 z-score
TTAGGTCTCCTTTTCATTTAGTGCTAG	0.716 z-score
TTAGGTCTCCTTATCCGTTAGTGCTAG	-0.196 z-score
GTAAATCTTTTTCCCTATTAGTGCTAG	1.28 z-score
